Measurements gathered from unrelated publications.
Numbered parts are unrelated; each lists some results of a single study.

Study 1
Target: RNA binding protein fox-1 homolog 2, RRM domain, GST-SBP tag (RBFOX2, Homo sapiens, UniProt O43251-10, residues 100-194)
Technique: RNA Bind-n-Seq
Form: RNA
Medium: in vitro
Concentration: 365 nM
Notes: natural RNA segment, single round, ends assumed
Baseline: no-protein control
Direction: higher = stronger binding
Shared flanks, not repeated: GGGAGUUCUACAGUCCGACGAUC … UGGAAUUCUCGGGUGCCAA
Target sequence (chain): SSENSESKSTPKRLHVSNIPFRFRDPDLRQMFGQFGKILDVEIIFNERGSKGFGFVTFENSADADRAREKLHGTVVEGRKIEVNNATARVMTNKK
Sequence | RBNS enrichment (R)
GAUCAGGAAGUUUGAGUGCUAUGCAAAUAACAUAGUAGUAAUUUCUCUUUGCAUGCCAUGUGUAAUAUACCUAGCCAAAACCAGAUGCGGUGACUUUCUUUUUUUGUAAA | 3.15
UGGAGACUGAAAAUGCCUACUGUAUUGAUGUCUUUAUUCUUUGGUGAAUCAAAAGUUUUAAAAGUAGUUUUAAAAACUUUACACUAUAAUGAUUUAGUUUUGUUAUUGCA | 1.01
UAUGCCUUGGAGCUCCUGACUGCAGGGACUCUGUCCCCACACUCAAAAAGACUCAGCUCACUCAAUGAGAGAAUGUGAUUUACUUUAUAGAACGUAUAAUCAACUUUGUU | 0.837
AUUGCCCUGCCAUCCAUGAAAACUGUUCUGGCACCAAAAGUAAUGACAAAUGUUAAGUGUAAUAAUAGAAAAGUAGAGCAAAGAGCCAUUCAGCUUCAGUCUUUACAUAC | 0.323
GUUUACCAUAAAGUUCCUUUCUCAGUAGAUUUUUCUUUCUUUUUUAAAAGAGGUGGUUGGCAAUUUAGGAUUCAUCUGGGUCUGUCCUGGUAAAGUCCUGCUGUGCAGAU | 0.544
AGACUGUACAGCCACCCUCAGCUGCCAUCUUUGUCUUCCUGCUGCCACCUCAGGCAGCUGUUACUCAGCCUCCGUUACCUGCUGUAGACUGUCAGCAUCCUCACACAGCG | 0.843
ACAUCCAGUAAAAUUCACCCUUUGGAAAUAUACAGCUCUGUGAAUUUUGACAAAUUUAGUGUCUUGUGACCAUCACCAAGAUCAACCUGUUUUUAACCCUCCAAAAAAUU | 0.578
UUCUGCCACAGGUCUGCCGAUGCCCUGUCCACUGCCUACACAUGACAGACAAGUAACCCCCUCAUGGGGGAUGGGGACCUACCUGGCUCCUCAGCCAGCACCCAGCUUAA | 0.433
AAAAAGGAGAACUGAAAAUUUAGACAUACAGUUGGCCAUUGUAAAAAACAUCAGUUUCCUCUCAUACAUUCCAAGUAAACCAAGUAAAAUAAGUGUUGGAGUAACACUUG | 0.563
UAGGACCGUUUUCUCCCUCUCUCUUGUCCCUAUGGUAAAGUUCUCCCUGGCGUCCUUCUGAAACUACACCAUGUGGCCCCUUGGAACUAAUCCCAAGUCAAUGCGUGUAU | 0.878
CAGCGCCUGGUUGCCUUUCUCCUGUGUAUGUGUAAAUUCCUUAAUAAAUAUUGCAGGGAAAGACCCUUUUGCUCGGCUGUCACUGUGUUACUCUUGGAAGACAGUGAGAC | 1.13
CUCAAAUAAGCAGUAGUUUUUUUGUUGUUUAUUUUUAAUGAAACAGCUGUGUUAAGGCGCUGCUUCAGAUGCAAGUUCACCUGGAAAUACUGGUCAGCGGGCAGCACGUC | 4.4

Study 2
Target: Interferon regulatory factor 5, full length, phosphomimetic (IRF5, Homo sapiens, UniProt Q13568-2, residues 1-514, S451D/S453D/S456D/S462D)
Technique: protein-binding microarray
Form: double-stranded DNA, one strand shown
Medium: in vitro
Concentration: 940 nM top
Notes: 60-bp whole probe
Together with: salmon DNA 0.4 mg/ml
Baseline: random background probes
Direction: higher = stronger binding
Shared flanks, not repeated: GCCTAGCAC … GTCTTGATTCGCTTGACGCTGCTG
Sequence | fitted relative affinity [z-score]
TCACCTTTACTTTCTTTACTGTGCTAG | 2.32
TTAGGTATCCTACTGCTTGAGTGCTAG | -0.134
TCACAGTTTAATATCTAACTGTGCTAG | 0.111
TCTGTTTTCGCTTTCTTTAAGTGCTAG | 3.78
GTAGATGCCTTTCTCTTGGAGTGCTAG | 0.28
TTCTGATTGAATCTCCCATTGTGCTAG | 0.433
TCATTTTCCTATGTCATACTGTGCTAG | 1.22
TCATCATTATTGTGTCAAACTGTGCTA | 0.503
CACGGTTTCCTTCTCCTGACGTGCTAG | 1.43
TCATTATGCTCTTTCTAACTGTGCTAG | 0.848
TCAGCTCTAGGTTCTCTGACTGTGCTA | -0.117
GACGGTCTCGGACTGGGGATGTGCTAG | 0.783
CACGGACTGGGACTGGGGACGTGCTAG | -0.558
TTAAGTATCGGACTGGGTTAGTGCTAG | 3.19
TTAGGTATCCTTCTCCTATAGTGCTAG | 0.937
ATCTCTTTCCTTACTTCCCAGTGCTAG | 2.59
GACGGTATCCTGCTCCTGACGTGCTAG | -0.22
GGCGGTATCCTTATCCTGACGTGCTAG | 0.216
GACGGACTGGACACAGGGGACGTGCTA | -0.64
TTAGATCTCAGTTTCGATTGGTGCTAG | 7.44
TTAGAGCTGGGGACTGGATTAGTGCTA | -0.13
GACGATATCGGGACGGGAGACGTGCTA | -0.402

Study 3
Target: Prothrombin, mature alpha-thrombin (F2, Homo sapiens, UniProt P00734)
Technique: aptamer microarray, sandwich
Form: DNA with 2'F-ANA
Medium: in vitro
Concentration: 200 nM
Notes: whole 15-mer aptamer, many near background
Together with: Cy3 exosite-II aptamer, 400 nM
Direction: higher = stronger binding
Sequence: GGTTGGTGTGGTTGG
Modification | mean fluorescence intensity [a.u.]
2'F-ANA at 2 3 4 6 8 10 11 13 14 | 129
2'F-ANA at 1 2 4 5 9 11 14 | 41.4
2'F-ANA at 9 12 13 14 15 | 225
2'F-ANA at 1 7 8 10 11 12 15 | 67.2
2'F-ANA at 1 3 4 8 9 11 13 14 | 58.6
2'F-ANA at 3 4 5 6 7 8 11 14 15 | 53.6
2'F-ANA at 1 2 3 4 5 9 10 11 12 14 15 | 54
2'F-ANA at 2 3 4 5 9 10 15 | 91.7
2'F-ANA at 2 4 5 6 7 8 12 13 | 146
2'F-ANA at 2 4 5 7 8 10 11 15 | 53.7
2'F-ANA at 2 3 4 11 12 14 | 381
2'F-ANA at 1 4 5 | 60.6
2'F-ANA at 2 3 4 5 9 10 12 14 | 48.1
2'F-ANA at 1 5 7 8 11 12 15 | 85.9
2'F-ANA at 2 4 5 6 7 10 11 12 14 | 45.1
2'F-ANA at 3 12 13 | 1230
2'F-ANA at 6 8 9 10 11 12 13 14 15 | 130
2'F-ANA at 2 3 4 5 6 7 10 11 13 14 | 47.9
2'F-ANA at 2 5 8 13 14 | 94.4
2'F-ANA at 1 2 4 7 8 9 10 11 13 14 15 | 50.8
2'F-ANA at 2 6 7 9 13 | 243
2'F-ANA at 3 6 7 10 11 12 15 | 518
2'F-ANA at 1 2 8 9 10 12 13 | 88.1
2'F-ANA at 2 4 5 6 8 10 11 12 14 15 | 67.7
2'F-ANA at 10 | 222

Study 4
Target: RING finger protein unkempt homolog, zinc fingers 1-6, GST-SBP tag (UNK, Homo sapiens, UniProt Q9C0B0, residues 30-357)
Chain of UniProt Q9C0B0 (30-357, looked up): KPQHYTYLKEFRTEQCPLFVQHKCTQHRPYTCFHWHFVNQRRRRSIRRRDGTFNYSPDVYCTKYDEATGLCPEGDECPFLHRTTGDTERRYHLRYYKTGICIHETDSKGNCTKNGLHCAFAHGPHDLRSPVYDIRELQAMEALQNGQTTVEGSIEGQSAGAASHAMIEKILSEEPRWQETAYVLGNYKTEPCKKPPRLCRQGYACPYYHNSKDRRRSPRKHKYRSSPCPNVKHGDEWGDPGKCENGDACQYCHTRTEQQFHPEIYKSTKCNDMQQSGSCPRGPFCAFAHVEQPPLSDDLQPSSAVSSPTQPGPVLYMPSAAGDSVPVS
Technique: RNA Bind-n-Seq
Form: RNA
Medium: in vitro
Concentration: not given
Notes: RNA with constant flanks, human and mouse sites, ends assumed
Baseline: input RNA pool
Direction: higher = stronger binding
Shared flanks, not repeated: GGGAGUUCUACAGUCCGACGAUC … CAACAGAGGAUUGAGCAUCA
Sequence | bound/input enrichment [ratio]
GAUCGAACCUGGUCAUUGUGGAAAAAGCAGGAUACAAUCUCACCUGAGUUCGAGCCAGUUUUUAGUCUUUUUGCCUUCACCAACAAAAUUACUUCUGUGCACAGUAGAAUUAUUUGGUCU | 2.02
UAAAUUGAGGGCACUUGUACCCUCCCUGUGCCCCCAGAAGGUUCUUGGAGAGAAGUGCAAGAAUUUGUGAACACGGCGGUGGAGGGCGGGUGGAUGGCCAUGGGCUGAGCCUCCGUAUCA | 0.193
UUGUUUAUGGGAGAUUAUGUUGACAGAGGAUAUUAUUCAGUUGAAACAGUUACACUGCUUGUAGCUCUUAAGGUUCGUUACCGUGAACGCAUCACCAUUCUUCGAGGGAAUCAUGAGAGC | 0.201
ACCCCCUUGACCCCCUACCUUUGAAGAGGCUUCGUGCAGGACUUUGAUGCUUGGGGUGUUCCGUGUUGACUCCCAGGUGGGCCUGGCUGCCCACUGCCCAUUCCUCUCAUAUUGGCACAU | 0.131
GGGUCCUUUGCACUUCAGUCGCUCUGGGCAGUGUGCACAUUUAGUCUUUCUGGGCAAUGGUGUUUCCGGCUAAGCUGGUUUUGUUUAAGGAAUUUUCUGUGUUGUCUGCUGGCUCUUGUG | 0.222
ACCAUGCACAAUUUUGUACGGAAGACAUUCUUCAGCCUGGCCUUCUGUGACUUCUGCCUUAAGUUUCUGUUCCAUGGAUUCCGCUGCCAGACCUGUGGCUACAAGUUCCACCAGCAUUGU | 0.182
GAAACCACUUAUCCAAAUACUUACAUUUUUGACUUGUUUGGAGGUGUUGAUCUUCUUGUAGAAAUUCUUAUGAGGCCUACGAUCUCUAUCCGGGGACAGAAACUGAAAAUAAGUGAUGAA | 0.275
GAGGAGAGUCUCACUGUAGAAAGUACUGACUUGAACGAUGAAAGAACAGGGGAGAGUCUCACUGUAGAAAGUACUGACUUGAACGAUUCUGCAGUAAACAUAGAAGCAUUUGUAGAGAGC | 4.04
ACACAGGAAUAAGCUUUCUUCUACCAAACACAUUCCCCCAUCUGGAGGGAGAGCUCCCCUAGUCCCUCCCCGCCCUCUGUCAUUUUGUUAAUGACAGGAUAGGCUGCUCCUGUGACUUAC | 0.707
UGGAGAGGAAUCCUAUUAUUUGGACCACCAGGAACAGGAAAAUCUUAUUUGGCUAAAGCUGUUGCAACGGAAGCAAACAACUCAACAUUUUUCUCAAUAUCUUCCUCUGACCUUGUGUCU | 0.186
AGCAGCCAUCUUAUCAACCUUCUGAACCCCAAAGGAAAGCCAGCAAACCAGCUGCUUGCUCUUAGGACUUUUUGCAAUUGCUUUGUUAGUCAGGCAGGACAAAAGCUCAUGAUGUCCCAG | 0.329
